Results of several laboratories.
Each line is one published result; not all experiments were run side by side. Numbers after ± are the reported error.
DCLRE1A: DNA cross-link repair 1A protein (DCLRE1A, Homo sapiens, UniProt Q6PJP8)
Sequence of UniProt Q6PJP8 (whole entry, looked up): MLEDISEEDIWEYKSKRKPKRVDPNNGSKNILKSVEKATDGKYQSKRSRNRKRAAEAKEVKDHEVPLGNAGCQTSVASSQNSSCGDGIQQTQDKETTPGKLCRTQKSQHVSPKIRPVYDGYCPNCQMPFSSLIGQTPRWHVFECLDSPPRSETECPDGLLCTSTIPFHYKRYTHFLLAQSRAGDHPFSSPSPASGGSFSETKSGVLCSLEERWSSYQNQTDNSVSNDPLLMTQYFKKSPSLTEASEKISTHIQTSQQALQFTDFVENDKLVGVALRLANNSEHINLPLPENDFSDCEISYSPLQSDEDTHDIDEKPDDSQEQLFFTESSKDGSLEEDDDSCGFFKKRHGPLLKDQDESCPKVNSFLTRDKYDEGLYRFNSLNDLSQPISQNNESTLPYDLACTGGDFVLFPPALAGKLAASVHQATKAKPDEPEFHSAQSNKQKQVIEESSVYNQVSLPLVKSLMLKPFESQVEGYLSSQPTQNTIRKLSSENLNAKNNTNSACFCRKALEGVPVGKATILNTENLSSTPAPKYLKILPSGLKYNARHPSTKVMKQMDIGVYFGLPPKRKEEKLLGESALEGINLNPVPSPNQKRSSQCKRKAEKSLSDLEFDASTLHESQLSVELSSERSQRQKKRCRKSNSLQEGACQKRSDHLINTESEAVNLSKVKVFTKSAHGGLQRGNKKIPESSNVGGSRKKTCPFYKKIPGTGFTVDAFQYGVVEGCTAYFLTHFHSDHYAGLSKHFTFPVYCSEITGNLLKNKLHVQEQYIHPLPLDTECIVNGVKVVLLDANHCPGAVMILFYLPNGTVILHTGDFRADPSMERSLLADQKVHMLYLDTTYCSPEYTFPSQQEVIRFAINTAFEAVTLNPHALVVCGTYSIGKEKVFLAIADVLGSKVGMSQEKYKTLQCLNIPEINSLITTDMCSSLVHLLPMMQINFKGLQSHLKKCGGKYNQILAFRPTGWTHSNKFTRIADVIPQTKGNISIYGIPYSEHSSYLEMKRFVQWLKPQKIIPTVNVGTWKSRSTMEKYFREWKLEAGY
NTRK1: High affinity nerve growth factor receptor (NTRK1, Homo sapiens, UniProt P04629)
Sequence of UniProt P04629 (whole entry, looked up): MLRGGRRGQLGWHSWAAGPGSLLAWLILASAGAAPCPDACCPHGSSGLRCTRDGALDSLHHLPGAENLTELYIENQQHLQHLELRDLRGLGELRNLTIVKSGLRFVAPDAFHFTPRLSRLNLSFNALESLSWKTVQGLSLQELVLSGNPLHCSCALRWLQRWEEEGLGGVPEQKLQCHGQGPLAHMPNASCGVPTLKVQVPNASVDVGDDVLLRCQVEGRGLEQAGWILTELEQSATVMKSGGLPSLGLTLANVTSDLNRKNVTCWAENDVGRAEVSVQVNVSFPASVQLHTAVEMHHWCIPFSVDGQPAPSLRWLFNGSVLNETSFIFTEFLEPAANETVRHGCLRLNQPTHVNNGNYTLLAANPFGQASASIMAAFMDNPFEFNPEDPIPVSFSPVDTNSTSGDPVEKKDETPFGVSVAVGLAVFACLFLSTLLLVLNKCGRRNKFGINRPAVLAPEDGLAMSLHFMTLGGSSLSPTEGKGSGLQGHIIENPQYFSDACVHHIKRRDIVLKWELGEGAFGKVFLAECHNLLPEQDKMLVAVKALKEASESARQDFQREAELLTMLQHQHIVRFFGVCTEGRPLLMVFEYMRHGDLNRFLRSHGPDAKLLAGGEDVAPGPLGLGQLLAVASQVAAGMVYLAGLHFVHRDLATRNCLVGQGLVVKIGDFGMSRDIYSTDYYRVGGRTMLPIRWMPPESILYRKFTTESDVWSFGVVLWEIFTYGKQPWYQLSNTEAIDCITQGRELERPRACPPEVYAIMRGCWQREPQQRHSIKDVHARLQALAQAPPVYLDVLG
STK26: Serine/threonine-protein kinase 26 (STK26, Homo sapiens, UniProt Q9P289)
Sequence of UniProt Q92626 (whole entry, looked up): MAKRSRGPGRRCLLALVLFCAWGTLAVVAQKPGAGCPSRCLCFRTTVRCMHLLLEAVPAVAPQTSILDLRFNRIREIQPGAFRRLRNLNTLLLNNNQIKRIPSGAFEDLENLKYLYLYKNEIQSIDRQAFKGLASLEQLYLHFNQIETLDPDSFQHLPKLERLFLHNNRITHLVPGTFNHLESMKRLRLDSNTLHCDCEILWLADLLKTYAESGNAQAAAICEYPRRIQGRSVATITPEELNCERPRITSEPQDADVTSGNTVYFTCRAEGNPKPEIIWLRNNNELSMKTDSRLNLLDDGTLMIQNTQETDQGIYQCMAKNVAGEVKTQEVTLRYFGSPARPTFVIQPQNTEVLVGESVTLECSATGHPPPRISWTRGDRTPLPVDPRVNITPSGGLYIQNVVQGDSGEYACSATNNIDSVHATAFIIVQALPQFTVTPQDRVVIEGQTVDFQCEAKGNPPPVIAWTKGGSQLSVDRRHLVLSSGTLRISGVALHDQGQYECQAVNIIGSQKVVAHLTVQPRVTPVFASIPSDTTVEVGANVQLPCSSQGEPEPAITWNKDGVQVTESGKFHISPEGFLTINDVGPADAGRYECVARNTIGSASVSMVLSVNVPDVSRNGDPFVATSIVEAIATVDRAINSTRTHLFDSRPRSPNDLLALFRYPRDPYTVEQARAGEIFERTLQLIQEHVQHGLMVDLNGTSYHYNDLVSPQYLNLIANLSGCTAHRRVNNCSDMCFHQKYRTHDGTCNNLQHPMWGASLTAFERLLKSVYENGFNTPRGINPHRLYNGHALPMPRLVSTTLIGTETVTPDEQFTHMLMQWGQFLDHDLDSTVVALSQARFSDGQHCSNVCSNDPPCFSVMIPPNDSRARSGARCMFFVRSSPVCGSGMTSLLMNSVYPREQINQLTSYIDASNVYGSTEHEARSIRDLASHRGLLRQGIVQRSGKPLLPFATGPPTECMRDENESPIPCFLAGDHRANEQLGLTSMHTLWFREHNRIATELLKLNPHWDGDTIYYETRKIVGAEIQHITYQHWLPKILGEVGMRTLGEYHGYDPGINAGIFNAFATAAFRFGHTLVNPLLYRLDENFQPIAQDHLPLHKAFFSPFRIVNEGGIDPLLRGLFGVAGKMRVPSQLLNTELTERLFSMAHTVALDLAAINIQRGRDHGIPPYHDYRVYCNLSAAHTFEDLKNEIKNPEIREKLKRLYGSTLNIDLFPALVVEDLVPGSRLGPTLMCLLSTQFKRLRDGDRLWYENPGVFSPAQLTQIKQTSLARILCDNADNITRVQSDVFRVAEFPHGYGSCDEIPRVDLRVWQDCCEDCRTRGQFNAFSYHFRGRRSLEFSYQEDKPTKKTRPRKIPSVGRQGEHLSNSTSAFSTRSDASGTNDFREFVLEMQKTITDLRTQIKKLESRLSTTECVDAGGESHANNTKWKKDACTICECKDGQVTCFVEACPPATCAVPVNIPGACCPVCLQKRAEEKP
Sequence of UniProt Q9P289 (whole entry, looked up): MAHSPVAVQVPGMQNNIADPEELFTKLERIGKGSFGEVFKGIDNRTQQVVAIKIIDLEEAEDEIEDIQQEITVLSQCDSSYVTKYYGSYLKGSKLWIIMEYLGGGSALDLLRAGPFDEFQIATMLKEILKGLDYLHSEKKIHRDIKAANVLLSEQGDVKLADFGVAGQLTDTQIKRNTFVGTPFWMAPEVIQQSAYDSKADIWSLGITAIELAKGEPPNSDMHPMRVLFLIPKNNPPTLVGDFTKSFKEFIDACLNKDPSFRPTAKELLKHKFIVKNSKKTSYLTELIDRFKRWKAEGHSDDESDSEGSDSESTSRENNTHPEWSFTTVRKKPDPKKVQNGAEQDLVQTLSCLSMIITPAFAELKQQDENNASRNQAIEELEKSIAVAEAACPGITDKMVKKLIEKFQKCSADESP
Sequence of UniProt P45983 (whole entry, looked up): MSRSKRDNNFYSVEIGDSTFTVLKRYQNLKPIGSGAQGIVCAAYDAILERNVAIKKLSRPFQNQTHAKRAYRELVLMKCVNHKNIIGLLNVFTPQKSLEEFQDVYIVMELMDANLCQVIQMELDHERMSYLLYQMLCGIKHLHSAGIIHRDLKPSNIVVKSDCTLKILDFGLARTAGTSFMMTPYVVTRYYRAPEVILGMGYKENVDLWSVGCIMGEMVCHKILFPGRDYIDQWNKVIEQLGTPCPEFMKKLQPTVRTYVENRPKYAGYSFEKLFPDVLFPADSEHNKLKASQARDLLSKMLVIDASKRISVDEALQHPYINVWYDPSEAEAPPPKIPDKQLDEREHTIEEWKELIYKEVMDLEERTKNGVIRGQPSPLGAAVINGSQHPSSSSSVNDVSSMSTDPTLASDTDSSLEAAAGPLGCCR
Sequence of UniProt P31749 (whole entry, looked up): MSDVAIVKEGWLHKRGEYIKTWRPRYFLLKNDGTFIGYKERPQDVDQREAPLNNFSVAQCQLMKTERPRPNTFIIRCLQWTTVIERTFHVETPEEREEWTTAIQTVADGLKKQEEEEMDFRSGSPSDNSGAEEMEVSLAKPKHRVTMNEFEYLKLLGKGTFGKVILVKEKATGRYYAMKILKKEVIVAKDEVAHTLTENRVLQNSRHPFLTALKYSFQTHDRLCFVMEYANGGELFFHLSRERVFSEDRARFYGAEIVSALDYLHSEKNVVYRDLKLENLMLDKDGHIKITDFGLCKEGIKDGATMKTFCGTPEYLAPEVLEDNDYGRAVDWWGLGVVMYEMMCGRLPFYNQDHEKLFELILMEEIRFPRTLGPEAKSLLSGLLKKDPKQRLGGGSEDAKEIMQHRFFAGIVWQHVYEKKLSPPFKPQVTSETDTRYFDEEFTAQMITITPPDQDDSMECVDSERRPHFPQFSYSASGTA
Sequence of UniProt Q14012 (whole entry, looked up): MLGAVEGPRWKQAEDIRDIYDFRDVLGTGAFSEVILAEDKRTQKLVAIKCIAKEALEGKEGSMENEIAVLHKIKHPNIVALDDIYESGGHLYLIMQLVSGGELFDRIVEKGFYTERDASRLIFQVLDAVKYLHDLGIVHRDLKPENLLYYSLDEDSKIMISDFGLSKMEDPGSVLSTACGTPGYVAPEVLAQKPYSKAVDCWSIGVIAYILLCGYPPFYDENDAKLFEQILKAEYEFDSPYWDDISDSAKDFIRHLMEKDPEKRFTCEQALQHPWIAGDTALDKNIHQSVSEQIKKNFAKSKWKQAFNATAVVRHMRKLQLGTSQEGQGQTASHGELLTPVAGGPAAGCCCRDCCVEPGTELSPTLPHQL

Compound	target or system	assay	test system	setting	how to read	measurement	result
C=CC(=O)N1CCC[C@@H](n2nc(-c3ccc(Oc4ccccc4)cc3)c3c(N)ncnc32)C1	MYLK (Homo sapiens, UniProt Q15746)			10 µM		remaining activity	52.8%
c1cnc2ccc(Nc3nc(NC4CC4)c4nc[nH]c4n3)cc2c1	PRKACA (Homo sapiens, UniProt P17612)	kinase activity, inhibitor, SelectScreen kinase profiling		1 µM	reference: control	remaining activity	72%
CC(=O)ON=C1C=CC(=C(C#N)c2ccccc2)C=C1	Clk1 (Mus musculus, UniProt P22518)	enzyme activity, inhibitor, ADP-Glo		2 µM, about MIC/10, with: ATP 10 µM		remaining activity	98%
O=C1/C(=C/c2ccc(O)c(O)c2)Oc2cc(O)ccc21	DCLRE1A	exonuclease activity, inhibitor, fluorescence HTS		10 µM, 80 min, with: 8 nM 5P-FQ substrate	reference: high and low controls	remaining activity	53.2%
O=C(NC1CCC1)c1ccc2nc(-c3cccc(NS(=O)(=O)NCCN4CCCCC4)c3)cn2c1	NTRK1	enzyme activity		10 µM		remaining activity	74%
Cc1cc(Nc2cc(N3CCN(C)CC3)nc(Sc3ccc(NC(=O)C4CC4)cc3)n2)[nH]n1	AKT1 (Homo sapiens, UniProt P31749)	kinase activity, KinaseProfiler		0.03 µM, species human	reference: control	remaining activity	96%
C=CC(=O)N1CCC([C@@H]2CCNc3c(C(N)=O)c(-c4ccc(Oc5ccccc5)cc4)nn32)CC1	STK26	kinase activity, inhibitor, HotSpot radiometric		100 nM, with: ATP 10 µM		remaining activity	79.3 ± 0.3%
CC(C)(O)[C@H]1CC[C@H](Nc2ccc3ncc(-c4cccc(C(F)(F)F)c4)n3n2)CC1	SRPK3 (Homo sapiens, UniProt Q9UPE1)	enzyme activity, inhibitor		1 µM, with: 10 µM ATP	reference: DMSO	remaining activity	80.9%
COc1cc(Nc2ncc3c(n2)-c2ccc(Cl)cc2C(c2c(F)cccc2OC)=NC3)ccc1C(=O)O	MAP3K8	kinase activity		1 µM		remaining activity	94%
Cn1cc(-c2ccc(-c3cncc(Cl)c3N3CCC4(CCNC4=O)CC3)cc2)cn1	COLO 205	microarray, measured: R3HDM1		concentration not given, 6 h	reference: untreated cells	fold change in expression	-2.26
O=C1NC(=O)/C(=C/c2ccc(-c3ccc(F)cc3O)o2)S1	MELK (Homo sapiens, UniProt Q14680)	enzyme activity		10 µM		remaining activity	91%
COc1cc(N2CCN(C)CC2)ccc1Nc1nc(N)n(C(=S)NCc2c(Cl)cccc2Cl)n1	MAP3K19 (Homo sapiens, UniProt Q56UN5)	enzyme activity		10 µM	reference: control	remaining activity	0%
COc1cc(-c2oc3cc(O)ccc3c(=O)c2O)ccc1O	DCLRE1A	exonuclease activity, inhibitor, fluorescence HTS		10 µM, 80 min, with: 8 nM 5P-FQ substrate		remaining activity	47.4%
CC#CC(=O)N1CCC[C@H]1c1nc(-c2ccc(C(=O)Nc3ccccn3)cc2)c2c(N)nccn12	CAMK1 (Homo sapiens, UniProt Q14012)	kinase activity, inhibitor, HotSpot radiometric		100 nM, with: ATP 10 µM		remaining activity	98.8 ± 3.7%
COc1cc(-c2cncc3c2CN(C)Cc2cc(N4CCNCC4)ccc2-3)cc(OC)c1OC	Map2k4 (Mus musculus, UniProt P47809)	kinase activity		1 µM, mouse enzyme, with: ATP 10 µM	reference: DMSO control	remaining activity	88%
OC[C@H]1OC(O)[C@H](O)[C@@H](O)[C@@H]1O (stereo partly shown)	uncharacterized protein (Lacticaseibacillus rhamnosus, UniProt A0A7S7JIA0)	inhibitor		1000 µM, 5 min	reference: untreated	remaining activity	94.7 ± 3.5%

Compound	target or system	assay	test system	setting	how to read	measurement	result
O=C(O)c1cc(O)c(=O)c2c(O)c(O)ccc2c1	DCLRE1A	exonuclease activity, inhibitor, fluorescence HTS		10 µM, 80 min, with: 8 nM 5P-FQ substrate		remaining activity	28.8%
CNc1ncc2c(/C=C/C(=O)N3CCC(OC)CC3)nn(Cc3cccc(C(F)(F)F)c3)c2n1	NTRK1	kinase activity, inhibitor		1 µM	reference: untreated control	remaining activity	69%
Cc1ccc(NC(=O)c2ccc(C)c(C(F)(F)F)c2)cc1C#Cc1nn(C2CCC(O)CC2)c2ncnc(N)c12 (stereo not shown)	Phosphatidylinositol 4,5-bisphosphate 3-kinase catalytic subunit beta isoform, with p85 beta (Pik3cb, Mus musculus, UniProt Q8BTI9)	enzyme activity, inhibitor		10 µM, p110b/p85b)(m mouse, with: ATP 10 µM		remaining activity	93%
COc1ccc(F)cc1C(=O)NCc1ccc(-c2nn([C@@H](C)C(F)(F)F)c(N)c2C(N)=O)cc1	STK26	kinase activity, inhibitor, HotSpot radiometric		100 nM, with: ATP 10 µM		remaining activity	81%
Cc1cc2nc3c(=O)[nH]c(=O)nc-3n(C[C@H](O)[C@H](O)[C@H](O)CO)c2cc1C	DCLRE1A	exonuclease activity, inhibitor, fluorescence HTS		10 µM, 80 min, with: 8 nM 5P-FQ substrate		remaining activity	44.7%
O=C(O)c1ccc(Nc2ncc3c(n2)-c2ccc(Cl)cc2C(c2c(F)cccc2F)=NC3)cc1	PKCθ(h)	kinase activity		1 µM		remaining activity	112%
N#CCC(=O)Nc1ccc(C2CCCCC2)cc1		liver microsome stability	rat liver microsomes	1 µM		hepatic clearance	51 mL/min/kg
O=C1c2cccc(O)c2C(=O)c2c(O)cc(CO)cc21	DCLRE1A	exonuclease activity, inhibitor, fluorescence HTS		10 µM, 80 min, with: 8 nM 5P-FQ substrate	reference: high and low controls	remaining activity	50.2%
Cc1cc(NC(=O)c2cccc(NC(=O)/C=C/CN(C)C)c2)ccc1Nc1nccc(-c2cccnc2)n1	MAPK8 (Homo sapiens, UniProt P45983)	enzyme activity, inhibitor		44.44 µM, 0 h, unit not given, with: GSH 10 mM pre-incubation	reference: vehicle	remaining activity	0.0192
S=C=Nc1ccc2oc(C3=NCCN3)cc2c1	DCLRE1A	exonuclease activity, inhibitor, fluorescence HTS		10 µM, 80 min, with: 8 nM 5P-FQ substrate	reference: high and low controls	remaining activity	51.4%
NC/C(=C\F)COc1cccc(Cn2c(=S)[nH]c(=O)c3[nH]cnc32)c1	Peroxidasin homolog (PXDN, Homo sapiens, UniProt Q92626)	enzyme activity, inhibitor, Amplex UltraRed		0.3125 µM	reference: control	remaining activity	99.8%
Clc1ccc(C(c2ccc(Cl)cc2)n2cc[n+](CC(OCc3ccc(Cl)cc3Cl)c3ccc(Cl)cc3Cl)c2)cc1 (stereo not shown)	DCLRE1A	exonuclease activity, inhibitor, fluorescence HTS		10 µM, 80 min, with: 8 nM 5P-FQ substrate		remaining activity	40.6%
CN(Cc1cccnc1)C(=O)c1ccc([C@H]2[C@@H](F)[C@@H](F)C[C@@H](F)[C@H]2F)cc1		hepatocyte stability	cryopreserved human hepatocytes	1 µM		hepatic clearance	11 mL/min/kg
CC[n+]1c(/C=C/C=C2/N(C)c3ccccc3C2(C)C)sc2ccccc21.[I-]	DCLRE1A	exonuclease activity, inhibitor, fluorescence HTS		10 µM, 80 min, with: 8 nM 5P-FQ substrate	reference: high and low controls	remaining activity	30.8%
COc1cc(F)ccc1-c1ncnc(Nc2cccc(C[S@](C)(=N)=O)c2)n1	STK11 (Homo sapiens, UniProt Q15831)	kinase activity		10 µM, with: 10 µM ATP		remaining activity	90%
